# Results from different studies.
# Compare with care: the assays were run in different laboratories. ± marks the error that the study gave.
# Cell line: PC-3
SMILES,observed,method,time,IC50 [µM]
COC(=O)c1c(-c2cccc(O)c2)c2n(c1C(=O)OC)CCn1cccc1-2,cell growth or viability,MTT,48 h,90.8
O=C1Nc2ccccc2C1=Cc1cc2ccc(Cl)cc2nc1Cl,cell growth or viability,MTT,72 h,> 100
N#CC(C(=O)Nc1nnc(NC(=O)c2ccccc2)s1)C(=S)Nc1ccccc1 (stereo not shown),cell growth or viability,MTT,48 h,28.8
O=C1Nc2ccccc2C1=Cc1cc2cc(Br)ccc2nc1Cl,cell growth or viability,MTT,72 h,> 100
COc1ccc(-c2cc(-c3ccc4ccccc4c3)c3c(=O)[nH]c(=O)[nH]c3n2)cc1,cell growth or viability,MTT,48 h,< 5
CC(=NNC(=O)COc1ccc2c(C)c(Cc3ccccc3)c(=O)oc2c1C)c1ccc(Br)cc1,cell growth or viability,MTT,,3.56
COc1ccc(-c2c3n(c4c(=O)[nH]nc(O)c24)CCn2cccc2-3)cc1,cell growth or viability,MTT,48 h,68.3
N#CC(C(=O)Nc1nnc(NC(=O)c2ccccc2)s1)=C1SCCN1c1ccccc1,cell growth or viability,MTT,48 h,92.3
C=CCc1ccc(OCc2nnc(SCC(=O)N3CCOCC3)o2)c(OC)c1,cell growth or viability,MTT,72 h,20.3
CCCOc1ccc2c(C)c(CC)c(=O)oc2c1C,cell growth or viability,MTT,,> 50
COc1cccc2cc(C=C3C(=O)Nc4ccccc43)c(Cl)nc12,cell growth or viability,MTT,72 h,> 100
COC(=O)c1c(-c2ccc(C)cc2)c2n(c1C(=O)OC)CCn1cccc1-2,cell growth or viability,MTT,48 h,89.3
CCN1CCC2(CC1)C/C(=N\N=C\c1ccc(N(C)C)cc1)c1ccccc1O2,cell growth or viability,MTT,48 h,55
CCNC(=S)NNC(=O)COc1ccc2c(C)c(CC)c(=O)oc2c1C,cell growth or viability,MTT,,> 50
COC(=O)c1c(-c2cccc(Br)c2)c2n(c1C(=O)OC)CCn1cccc1-2,cell growth or viability,MTT,48 h,80.7
Cc1c(Cc2ccccc2)c(=O)oc2c(C)c(OCC(=O)NN=Cc3ccc(Cl)cc3)ccc12,cell growth or viability,MTT,,> 50
CN(C)C/C=C/C(=O)Nc1cc2c(Nc3ccc(F)c(Cl)c3)ncnc2cc1O[C@H]1CCOC1,cell growth or viability,MTT,48 h,7.98
N#CC(=Cc1ccc(Cl)cc1Cl)C(=O)Nc1nnc(NC(=O)c2ccccc2)s1,cell growth or viability,MTT,48 h,9.1
Cc1c(Cc2ccccc2)c(=O)oc2c(C)c(OCC(=O)NN=Cc3ccco3)ccc12,cell growth or viability,MTT,,8.99
C[C@]1([N+](=O)[O-])C(=O)c2ccccc2O[C@@H]1CC(=O)Nc1ncccn1,cell growth or viability,SRB,96 h,> 50
CCc1c(C)c2ccc(OCc3nnc(S)n3N)c(C)c2oc1=O,cell growth or viability,MTT,,> 50
Nc1nnc(NC(=O)c2ccccc2)s1,cell growth or viability,MTT,48 h,30
Cc1cc2cc(C=C3C(=O)Nc4ccccc43)c(Cl)nc2cc1C,cell growth or viability,MTT,72 h,> 100
C[C@]1([N+](=O)[O-])C(=O)c2c(F)cccc2O[C@@H]1CC(=O)NC12CC3CC(CC(C3)C1)C2,cell growth or viability,SRB,96 h,2.91
N#CC(C(=O)Nc1nnc(NC(=O)c2ccccc2)s1)=C1SC(=O)CN1c1ccccc1,cell growth or viability,MTT,48 h,> 100
C#CCNC(=O)C[C@H]1Oc2ccccc2C(=O)[C@]1(C)[N+](=O)[O-],cell growth or viability,SRB,96 h,13
O=C1Nc2ccccc2C1=Cc1cc2ccccc2nc1Cl,cell growth or viability,MTT,72 h,> 100
C[C@]1([N+](=O)[O-])C(=O)c2cc(Cl)ccc2O[C@@H]1CC(=O)NC12CC3CC(CC(C3)C1)C2,cell growth or viability,SRB,96 h,3.07
N#CC(=Cc1ccc(Cl)cc1)C(=O)Nc1nnc(NC(=O)c2ccccc2)s1,cell growth or viability,MTT,48 h,21.9
C[C@]1([N+](=O)[O-])C(=O)c2cccc(F)c2O[C@@H]1CC(=O)NC12CC3CC(CC(C3)C1)C2,cell growth or viability,SRB,96 h,3.02
O=C(Nc1nnc(NC(=O)c2cc3ccccc3oc2=O)s1)c1ccccc1,cell growth or viability,MTT,48 h,66.5
C#CCOC(=O)C[C@H]1Oc2ccccc2C(=O)[C@]1(C)[N+](=O)[O-],cell growth or viability,SRB,96 h,26.2
C=CCc1ccc(OCc2nnc(SCC(=O)Nc3cccc(C)c3)o2)c(OC)c1,cell growth or viability,MTT,72 h,24.3
O=c1[nH]nc(O)c2c(-c3cccc([N+](=O)[O-])c3)c3n(c12)CCn1cccc1-3,cell proliferation,MTT,48 h,17.66 ± 0.012
C[C@]1([N+](=O)[O-])C(=O)c2ccccc2O[C@@H]1CC(=O)NC12CC3CC(CC(C3)C1)C2,cell growth or viability,SRB,96 h,3.09
Cc1cc(-c2ccccc2)n(-c2nnc(NC(=O)c3ccccc3)s2)c(=O)c1C#N,cell growth or viability,MTT,48 h,86.5
COC(=O)c1c(-c2ccccc2F)c2n(c1C(=O)OC)CCn1cccc1-2,cell growth or viability,MTT,48 h,89.1
CCc1c(C)c2ccc(OCC=Cc3ccccc3)c(C)c2oc1=O,cell growth or viability,MTT,,> 50
CC(=O)O[C@@]12CO[C@@H]1C[C@H](O)[C@@]1(C)C(=O)[C@H](O)C3=C(C)[C@@H](OC(=O)[C@H](O)[C@@H](NC(=O)OC(C)(C)C)c4ccccc4)C[C@@](O)([C@@H](OC(=O)c4ccccc4)[C@H]21)C3(C)C,cell growth or viability,SRB,96 h,0.013
COC(=O)c1c(-c2ccc(O)c(OC)c2)c2n(c1C(=O)OC)CCn1cccc1-2,cell growth or viability,MTT,48 h,47.7
C=CCc1ccc(OCc2nn(CN3CCOCC3)c(=S)o2)c(OC)c1,cell growth or viability,MTT,72 h,1.1
COC(=O)c1c(-c2cccc(Cl)c2)c2n(c1C(=O)OC)CCn1cccc1-2,cell growth or viability,MTT,48 h,67.2
CN1CCC2(CC1)C/C(=N\N=C\c1ccc(O)cc1)c1ccccc1O2,cell growth or viability,MTT,48 h,2.37
